Published values pooled from the literature.
Each numbered part is a random draw from the data of one study; scales do not carry over between parts. Positions count from the first letter of the parent shown.

Sample 1
Target: CCNB3, cyclin fold, Cln2 fusion (human)
Method: yeast growth competition, sequencing
Matrix: yeast
Notes: weak parent motif
Baseline: not given
Direction: higher = stronger binding
Starting sequence: CDC6 docking peptide (human); TLKGRRLVFDNQL
| Variant | normalised enrichment score |
| --- | --- |
| TLKGRRVVFDNQL [L7V] | -0.122 |
| TLNGRRLVFDNQL [K3N] | 0.00881 |
| TPKGRRLVFDNQL [L2P] | 0.0553 |
| TLKGRRLVFTNQL [D10T] | 0.217 |
| TLKGRRLVFDTQL [N11T] | 0.127 |
| TLKGRRLVFDNQD [L13D] | 0.257 |
| TLKGRRLVFDNIL [Q12I] | 0.362 |
| TLKGRRLVFNNQL [D10N] | 0.601 |
| TLKGRRLVFDFQL [N11F] | 0.874 |
| TLKGTRLVFDNQL [R5T] | 0.914 |
| TLKGRRLVEDNQL [F9E] | 0.143 |
| KLKGRRLVFDNQL [T1K] | 0.449 |
| TSKGRRLVFDNQL [L2S] | -0.398 |
| MLKGRRLVFDNQL [T1M] | 0.162 |
| TLKSRRLVFDNQL [G4S] | -0.471 |
| TTKGRRLVFDNQL [L2T] | -0.285 |
| TLKGRRLVFDNQQ [L13Q] | 0.469 |
| TLKGRRLVFDNRL [Q12R] | -0.0547 |
| ALKGRRLVFDNQL [T1A] | 0.464 |
| GLKGRRLVFDNQL [T1G] | 0.241 |

Sample 2
Target: Prothrombin, mature alpha-thrombin (F2, Homo sapiens, UniProt P00734)
Method: aptamer microarray, sandwich
Molecule type: DNA with 2'F-ANA
Matrix: in vitro
Tested at: 200 nM
Notes: whole 15-mer aptamer, many near background
Together with: Cy3 exosite-II aptamer, 400 nM
Direction: higher = stronger binding
Strand: GGTTGGTGTGGTTGG
| Modification | mean fluorescence intensity [a.u.] |
| --- | --- |
| 2'F-ANA at 6 7 10 12 14 | 134 |
| 2'F-ANA at 8 10 14 15 | 106 |
| 2'F-ANA at 2 4 6 7 9 10 11 14 15 | 61.4 |
| 2'F-ANA at 2 3 4 6 8 11 12 13 14 15 | 252 |
| 2'F-ANA at 1 2 4 5 6 8 10 11 14 | 53.6 |
| 2'F-ANA at 3 4 7 8 9 10 11 15 | 258 |
| 2'F-ANA at 1 2 4 6 7 9 10 11 12 13 15 | 177 |
| 2'F-ANA at 1 2 3 4 5 6 8 9 | 65.3 |
| 2'F-ANA at 5 7 8 10 11 12 13 15 | 77.9 |
| 2'F-ANA at 3 4 5 6 8 10 12 13 | 49.9 |
| 2'F-ANA at 2 11 | 438 |
| 2'F-ANA at 3 5 6 9 10 12 13 15 | 55.3 |
| 2'F-ANA at 2 4 7 8 10 12 13 14 | 66.3 |
| 2'F-ANA at 10 11 13 | 157 |
| 2'F-ANA at 3 4 5 6 7 8 9 11 15 | 81.3 |
| 2'F-ANA at 1 2 4 7 9 12 13 14 15 | 61 |
| 2'F-ANA at 1 2 3 5 6 14 | 47.6 |
| 2'F-ANA at 1 4 9 12 14 15 | 64.3 |
| 2'F-ANA at 1 3 4 6 7 9 10 11 | 60.9 |
| 2'F-ANA at 2 3 5 11 12 14 15 | 57.7 |
| 2'F-ANA at 3 5 6 8 10 11 14 15 | 49.1 |
| 2'F-ANA at 1 2 6 7 10 13 14 | 89.5 |

Sample 3
Target: ABI1, truncated, D143A, DHFR fusion (Arabidopsis thaliana)
Method: DHFR PCA, deep sequencing
Matrix: yeast
Notes: methotrexate growth selection, single substitutions
Together with: (+)-ABA 200 µM
Baseline: wild-type fitted maximum
Direction: higher = stronger binding
Starting sequence: PYL1, truncated, DHFR fusion (Arabidopsis thaliana); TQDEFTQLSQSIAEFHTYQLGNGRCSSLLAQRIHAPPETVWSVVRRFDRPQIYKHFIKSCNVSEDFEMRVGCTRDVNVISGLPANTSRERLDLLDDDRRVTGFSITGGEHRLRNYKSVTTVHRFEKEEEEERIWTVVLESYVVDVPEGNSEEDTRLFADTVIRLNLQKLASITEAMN; partner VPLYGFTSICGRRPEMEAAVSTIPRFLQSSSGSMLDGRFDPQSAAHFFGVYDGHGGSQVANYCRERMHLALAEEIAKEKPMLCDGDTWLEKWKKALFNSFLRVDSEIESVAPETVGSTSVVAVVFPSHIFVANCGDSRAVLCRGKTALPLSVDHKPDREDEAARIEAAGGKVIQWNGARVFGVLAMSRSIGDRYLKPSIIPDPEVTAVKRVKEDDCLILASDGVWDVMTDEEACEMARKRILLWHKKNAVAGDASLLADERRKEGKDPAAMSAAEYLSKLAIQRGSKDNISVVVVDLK
| Variant | relative binding score [%] |
| --- | --- |
| I33W | -1.37 |
| G107M | 62.5 |
| V40D | -45.7 |
| E130F | 95.3 |
| E4F | 83.8 |
| G21R | 101 |
| F15K | 33.9 |
| L169E | 9.36 |
| P83Q | 69 |
| F56V | 18.5 |
| E38A | 94.1 |
| E130A | 105 |
| Y18M | 84.5 |
| T39R | 99.4 |
| S26A | 99.9 |
| A13H | 99.6 |
| A30T | 104 |
| L166W | -0.322 |
| F56G | 10.4 |
| S9A | 99.8 |
| L112S | -12.6 |
| I57A | 66.6 |
| K168Q | 97 |
| S117A | 97 |
| V143D | 5.12 |

Sample 4
Target: RING finger protein unkempt homolog, zinc fingers 1-6, GST-SBP tag (UNK, Homo sapiens, UniProt Q9C0B0, residues 30-357)
UniProt Q9C0B0, sequence (30-357, looked up): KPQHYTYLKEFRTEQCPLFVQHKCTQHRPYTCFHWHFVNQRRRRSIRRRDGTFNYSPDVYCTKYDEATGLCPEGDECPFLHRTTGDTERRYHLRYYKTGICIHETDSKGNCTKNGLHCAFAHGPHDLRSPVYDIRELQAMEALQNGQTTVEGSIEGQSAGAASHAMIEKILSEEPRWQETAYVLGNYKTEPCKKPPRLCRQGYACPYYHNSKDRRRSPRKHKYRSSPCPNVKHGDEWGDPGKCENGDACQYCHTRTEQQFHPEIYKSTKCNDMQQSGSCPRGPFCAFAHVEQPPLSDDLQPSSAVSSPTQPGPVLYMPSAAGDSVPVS
Method: RNA Bind-n-Seq
Molecule type: RNA
Matrix: in vitro
Tested at: not given
Notes: RNA with constant flanks, human-mouse chimeric sites, ends assumed
Baseline: input RNA pool
Direction: higher = stronger binding
Constant ends, left off below: GGGAGUUCUACAGUCCGACGAUC … CAACAGAGGAUUGAGCAUCA
| Strand | bound/input enrichment |
| --- | --- |
| GUGACAGGUGUUAAGAUUUCCCCUCAGCAAAGAAGUGCAGUAGUCACCAUAAUUCCAUCUGUGGUGAGUGCCAGUCAGAUAAAAGAGCUGGUCCCAGACCUCAGUUUAGACAUGGGAACU | 0.327 ratio |
| GCAAAGGAUGAUGAGGCGGCAGCUGUUGCCCUUUCCUCUCUCGUUCAUGCUUUGGAUGACUUAGACAUGGUGGCCAUCGUCCGAUAUGCUUAUGACAAAAGAUCUAAUCCUCAAGUUGGU | 0.233 ratio |
| GUUCGGCUCUGGGAUCAUGCCACAAUGACAGAAGUGAAAUCUCUGAAUUUUAAUAUGUCUGUUAGCAGUAUGGAAUAUAUUCCUGAAGGAGAGAUUUUGGUUAUAACUUAUGGACGAUCU | 1.12 ratio |
| AGAAUCUUGGGACUGUUUUGCUUGAUUGGUCAUUGAUAGCUUAACAAACAUGGAGAUAAGAUUAGAAAUCUUGACAUCAACAGGUAUCAAGCAGAAAAAACCAUGGCCACGUGUCUCCUG | 0.126 ratio |
| CAGGGCAUUAUUUCUCGUGCUGUUAGACACCUGUUCAAGAGUAUUGAUGAGAAAAAGACCUCAGCGAUUAAAAACGGGCUGCCCCCUCCUGAAUUCAAAGUGAAUGCCCAAUUCUUAGAG | 0.405 ratio |
| GGAAUUGCUGAUUCAAGUAAGUUUGAGUAUCACAAUGUUAGCUUUCUAAUUCCAUAAAAGUACUUGGUUUUUACAGUUUAUAAUCUGACAUCACCCCCCGUUUAUAAGUAAAGAGCAACU | 1.33 ratio |
| AACAGAUUGUCUUUAAGCAUUCCAAGCGAGAAUGCUGGGGUGAUCAUUGUUGCCCAUAUAUAGUAAUACUGAGCUUUAAUGCUGUUCCAUGUUACAUUGAUGUUCUUCUCCAGAAUUGUU | 0.355 ratio |
| UCUGAGGAUACCACUGAGAGACCUUAAAAGAAUCAUUUGAGGGCUCUGUUCGUGCAAGAAUAGUCACUGAUCGGGAAACUGGUUCUUCCAAAGGGUUUGGUUUUGUAGACUUUAAUAGUG | 0.634 ratio |

Repeated from above (sample 3):
| Variant | relative binding score [%] |
| --- | --- |
| E130A | 105 |
| Y18M | 84.5 |
| T39R | 99.4 |
| S26A | 99.9 |
| A13H | 99.6 |
| A30T | 104 |
| L166W | -0.322 |
| F56G | 10.4 |
